Experimental data gathered from unrelated publications.
Compare with care: the assays were run in different laboratories.
Target: High affinity nerve growth factor receptor (NTRK1, Homo sapiens, UniProt P04629)
Sequence of UniProt P04629 (whole entry, looked up): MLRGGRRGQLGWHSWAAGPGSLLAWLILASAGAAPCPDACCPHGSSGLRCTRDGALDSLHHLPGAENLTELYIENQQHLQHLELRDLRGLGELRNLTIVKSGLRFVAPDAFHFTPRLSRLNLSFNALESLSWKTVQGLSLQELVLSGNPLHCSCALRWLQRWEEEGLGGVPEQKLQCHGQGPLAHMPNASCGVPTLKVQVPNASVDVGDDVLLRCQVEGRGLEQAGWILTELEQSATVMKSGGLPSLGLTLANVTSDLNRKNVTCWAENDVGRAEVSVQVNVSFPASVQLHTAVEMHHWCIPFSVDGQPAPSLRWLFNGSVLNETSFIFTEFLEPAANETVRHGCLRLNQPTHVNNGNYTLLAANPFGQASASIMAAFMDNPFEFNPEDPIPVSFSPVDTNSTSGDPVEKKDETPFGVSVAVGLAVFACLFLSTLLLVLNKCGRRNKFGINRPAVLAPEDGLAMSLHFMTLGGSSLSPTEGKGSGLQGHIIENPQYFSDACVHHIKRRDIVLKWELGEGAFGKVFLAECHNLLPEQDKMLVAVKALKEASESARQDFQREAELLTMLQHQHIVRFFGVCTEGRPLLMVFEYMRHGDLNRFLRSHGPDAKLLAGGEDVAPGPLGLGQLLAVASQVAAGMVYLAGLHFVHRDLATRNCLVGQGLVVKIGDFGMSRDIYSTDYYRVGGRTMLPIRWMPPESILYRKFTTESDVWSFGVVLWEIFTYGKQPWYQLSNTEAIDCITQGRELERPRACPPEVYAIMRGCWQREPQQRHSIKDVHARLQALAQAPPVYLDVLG

| Structure (SMILES) | assay | setting | how to read | endpoint | result |
| --- | --- | --- | --- | --- | --- |
| O=C(O)c1ccccc1/C=N/Nc1nc(-c2ccccc2Cl)cs1 | enzyme activity, inhibitor | 1 µM |  | inhibition | -37.3% |
| O=C1NC(=O)c2c1c1cc(F)c[n+]3c1c1c2c2cc(O)ccc2[n]1[Ru-4]312([N]=C=S)[S+]3CC[S+]1CC[S+]2CC3 (centres unmarked) | enzyme activity | 100 nM, human enzyme, together with: 10 µM ATP | relative to: untreated | remaining activity | 17% |
| C[C@H](NCc1ccc(-c2ccc(C(F)(F)F)cc2)cc1)C(N)=O | cell-free assay, competition with immobilised ligand | 1 µM |  | inhibition | 0% |
| CCOC(=O)[C@@H]1Cc2c(cc([N+](=O)[O-])cc2[N+](=O)[O-])[C@H](O)[C@]12C(=O)Nc1ccc(Br)cc12 | binding, competition with immobilised ligand | 0.1 µM |  | remaining binding | 68% |
| CC(C)[C@H]1NC(=O)C[C@H]2/C=C/CCSSC[C@@H](NC1=O)C(=O)N[C@H](Cc1cccc3ccccc13)C(=O)NCC(=O)O2 | enzyme activity, inhibitor | 10 µM |  | inhibition | 6.8% |
| N[C@H](C(=O)N1CCCC1)C1CCN(c2nccc3c(-c4ncc(Cl)cc4Cl)cccc23)CC1 | kinase activity, inhibitor | 10 µM, together with: ATP 1 mM |  | inhibition | 23.2% |
| Nc1ccc(/C=C/C(=O)N2CCc3c(oc4c(-c5ccc(F)cc5)cc(-c5ccc(C(=O)N6CCC(F)(F)CC6)cn5)cc34)C2)cn1 | binding, competition with immobilised ligand | 1 µM |  | remaining binding | 100% |
| CS(C)(=O)=Nc1ccc(-c2ccc(-c3nc4cc(O[C@@H]5CO[C@H]6[C@@H]5OC[C@H]6O)[nH]c4cc3F)cc2)cc1 | enzyme activity, inhibitor | 10 µM |  | inhibition | 9% |

Repeated from above:
| Structure (SMILES) | assay | setting | how to read | endpoint | result |
| --- | --- | --- | --- | --- | --- |
| O=C1NC(=O)c2c1c1cc(F)c[n+]3c1c1c2c2cc(O)ccc2[n]1[Ru-4]312([N]=C=S)[S+]3CC[S+]1CC[S+]2CC3 (centres unmarked) | enzyme activity | 100 nM, human enzyme, together with: 10 µM ATP | relative to: untreated | remaining activity | 17% |
